Measurements from different studies.
Protocols differ between the studies behind these lines. “And” joins repeats or separate records; there may be more than shown. Numbers after ± are the reported error. Converted amounts (≈) assume the structure as drawn.

| SMILES | tested on | assay | system | conditions | scale | endpoint | value |
| --- | --- | --- | --- | --- | --- | --- | --- |
| Cc1cc(C(=O)Nc2nc3cccc(C)c3n2[C@H]2CCCCN(C(=O)/C=C/CN(C)C)C2)ccn1 | Trypanosoma brucei brucei |  | 2T1 wild type | 5 x EC50 |  | survival | 0.142% and 0.117% and -0.088% and -0.101% |
| CCOC(=O)C1(C)Oc2cc(F)ccc2N(C)C1=O (stereo not shown) | Arabidopsis thaliana | stem length, petri dish germination | Col-0, 1/2 MS medium | 50 µg/mL, 7 days, 22 °C, dark |  | inhibition | 65.8% |
| O=S(=O)(c1ccc(-c2ccc3ncnc(Nc4ccc(OCc5cccc(F)c5)c(Cl)c4)c3c2)cc1)N1CCCC1 | Plasmodium falciparum | parasite growth, SYBR Green | D6 | blood stage |  | EC50 | 200 nM |
| CC(C)C[C@H](NC(=O)[C@H](CCCCNC(=O)[C@H](CCCCN)NC(=O)[C@H](CC(C)C)NC(=O)[C@H](CCCCNC(=O)[C@H](CCCCN)NC(=O)[C@H](CC(C)C)NC(=O)[C@H](CCCCNC(=O)[C@H](CCCCN)NC(=O)[C@@H](N)CC(C)C)NC(=O)[C@H](CCCCN)NC(=O)[C@@H](N)CC(C)C)NC(=O)[C@H](CCCCN)NC(=O)[C@H](CC(C)C)NC(=O)[C@H](CCCCNC(=O)[C@H](CCCCN)NC(=O)[C@@H](N)CC(C)C)NC(=O)[C@H](CCCCN)NC(=O)[C@@H](N)CC(C)C)NC(=O)[C@H](CCCCN)NC(=O)[C@H](CC(C)C)NC(=O)[C@H](CCCCNC(=O)[C@H](CCCCN)NC(=O)[C@H](CC(C)C)NC(=O)[C@H](CCCCNC(=O)[C@H](CCCCN)NC(=O)[C@@H](N)CC(C)C)NC(=O)[C@H](CCCCN)NC(=O)[C@@H](N)CC(C)C)NC(=O)[C@H](CCCCN)NC(=O)[C@H](CC(C)C)NC(=O)[C@H](CCCCNC(=O)[C@H](CCCCN)NC(=O)[C@@H](N)CC(C)C)NC(=O)[C@H](CCCCN)NC(=O)[C@@H](N)CC(C)C)C(=O)N[C@@H](CCCCN)C(N)=O | Pseudomonas aeruginosa | biofilm inhibition, LB regrowth OD600 | PAO1 | concentration not given, 7-8 h regrowth | relative to: medium without supernatant | OD600 of regrown supernatant | 1 ± 0.07 |
| CCOC(=O)C1(Cc2ccccc2)Oc2cc(C)ccc2N(Cc2ccccc2)C1=O (stereo not shown) | Arabidopsis thaliana |  | Col-0 | 200 mg/mL |  | root growth inhibition | inhibited |
| CC(O)CN.O=C(O)C(Cl)Cl | Xanthium sibiricum |  |  | 15 mg/mL, 21 days, post-emergence, greenhouse |  | herbicidal inhibition | 53% |
| CCOC(=O)C1(Cc2cccc(C)c2)Oc2cc(F)ccc2N(Cc2cccc(C)c2)C1=O (stereo not shown) | Arabidopsis thaliana | root length, petri dish germination | Col-0, 1/2 MS medium | 200 µg/mL, 7 days, 22 °C, dark |  | inhibition | 75.6% |
| CC[C@H](C)CCCCC(=O)N[C@@H](CCN)C(=O)N[C@H](C(=O)N[C@@H](CCN)C(=O)N[C@H]1CCNC(=O)[C@H]([C@@H](C)O)NC(=O)[C@H](CCN)NC(=O)[C@H](CCN)NC(=O)[C@H](CC(C)C)NC(=O)[C@@H](CC(C)C)NC(=O)[C@H](CCN)NC1=O)[C@@H](C)O | Escherichia coli | daily serial passaging | ATCC 8739 | highest sub-MIC, 33 days | relative to: initial MIC | MIC fold change | 3.32 |
| COc1cc(Nc2ncnc3ccc(-c4ccc(S(=O)(=O)N5CCOCC5)cc4)cc23)ccc1OCc1cccc(F)c1 | Plasmodium falciparum | parasite growth, SYBR Green fluorescence | C235 (TM91C235), drug-resistant |  |  | EC50 | 600 nM |
| O=C1NC2(CC2)COc2ncc(F)cc2[C@H]2COCCN2c2ccn3ncc1c3n2 |  |  | Sprague-Dawley rat, female, adrenals | oral, 10 mg/kg/day, 4 weeks dosing, end of recovery |  | organ-to-body weight ratio | 0.024 ± 0.004% |
| CN1CCN(S(=O)(=O)c2ccc(-c3ccc4ncnc(Nc5ccc(Cl)cc5)c4c3)cc2)CC1 | Plasmodium falciparum | parasite growth, SYBR Green fluorescence | W2, drug-resistant |  |  | EC50 | 390 nM |
| CC(C)[C@H]1NC(=O)CNC(=O)[C@H](CO)NC(=O)[C@@H](Cc2c(-c3ccc(-c4ccc5ccccc5c4)cc3)[nH]c3ccccc23)NC(=O)[C@@H](CO)NC(=O)[C@@H](C(C)C)NC(=O)[C@H](Cc2ccccc2)NC1=O | Candida albicans | broth dilution |  |  |  | MIC90 | > 50 µM |
| CCOC(=O)C1(Cc2ccccc2)Oc2ccccc2N(Cc2ccccc2)C1=O (stereo not shown) | Arabidopsis thaliana | root length, petri dish germination | Col-0, 1/2 MS medium | 200 µg/mL, 7 days, 22 °C, dark |  | inhibition | 100% |
| O=S(=O)(c1ccc(-c2ccc3ncnc(Nc4ccccc4)c3c2)cc1)N1CCOCC1 | Plasmodium falciparum | parasite growth, SYBR Green fluorescence | C235 (TM91C235), drug-resistant |  |  | EC50 | > 4000 nM |
| CCOC(=O)C1(CC=C(C)C)Oc2cc(F)ccc2N(CC=C(C)C)C1=O (stereo not shown) | Arabidopsis thaliana | stem length, petri dish germination | Col-0, 1/2 MS medium | 50 µg/mL, 7 days, 22 °C, dark |  | inhibition | 30.3% |
| O=C(c1cccc(-c2ccc3ncnc(Nc4ccc(OCc5cccc(F)c5)c(Cl)c4)c3c2)c1)N1CCCCC1 | Plasmodium falciparum | parasite growth, SYBR Green | D6 | blood stage |  | EC50 | 510 nM |
| CCCCCCCC(=O)NCCCC[C@H](NC(=O)CCCCCCC)C(=O)N[C@@H](CCCCNC(=O)CCCCCCC)C(=O)NCC(=O)NCC(=O)NCC(=O)N[C@@H](CS)C(=O)N[C@@H](CCCNC(=N)N)C(=O)N[C@@H](CCCCN)C(=O)N1CCC[C@H]1C(=O)N[C@@H](CS)C(=O)N[C@@H](CCCNC(=N)N)C(=O)N[C@@H](CCCCN)C(=O)N1CCC[C@H]1C(=O)N[C@@H](CS)C(=O)N[C@@H](CCCNC(=N)N)C(=O)N[C@@H](CCCCN)C(=O)N1CCC[C@H]1C(=O)N[C@@H](CS)C(=O)N[C@@H](CCCNC(=N)N)C(=O)N[C@@H](CCCCN)C(=O)N1CCC[C@H]1C(N)=O | Candida albicans | broth microdilution | SP 3931, RPMI-1640 | 48 h, 30 °C |  | MIC | 32 µM (≈ 88.4 µg/mL) |
| CCCCCOc1ccc(-c2ccc3ncnc(Nc4ccc(OCc5cccc(F)c5)c(Cl)c4)c3c2)c(F)c1F | Plasmodium falciparum | parasite growth, SYBR Green fluorescence | C235 (TM91C235), drug-resistant |  |  | EC50 | > 15000 nM |
| C=CCN1C(=O)C(CC=C)(C(=O)OCC)Oc2cc(F)ccc21 (stereo not shown) | Arabidopsis thaliana |  | Col-0, seed germination, dark | 50 µg/mL, 7 days, 22 °C |  | root length inhibition | 91.9% |

A few entries again:
| SMILES | tested on | assay | system | conditions | scale | endpoint | value |
| --- | --- | --- | --- | --- | --- | --- | --- |
| CCOC(=O)C1(Cc2cccc(C)c2)Oc2cc(F)ccc2N(Cc2cccc(C)c2)C1=O (stereo not shown) | Arabidopsis thaliana | root length, petri dish germination | Col-0, 1/2 MS medium | 200 µg/mL, 7 days, 22 °C, dark |  | inhibition | 75.6% |
| CC[C@H](C)CCCCC(=O)N[C@@H](CCN)C(=O)N[C@H](C(=O)N[C@@H](CCN)C(=O)N[C@H]1CCNC(=O)[C@H]([C@@H](C)O)NC(=O)[C@H](CCN)NC(=O)[C@H](CCN)NC(=O)[C@H](CC(C)C)NC(=O)[C@@H](CC(C)C)NC(=O)[C@H](CCN)NC1=O)[C@@H](C)O | Escherichia coli | daily serial passaging | ATCC 8739 | highest sub-MIC, 33 days | relative to: initial MIC | MIC fold change | 3.32 |
| COc1cc(Nc2ncnc3ccc(-c4ccc(S(=O)(=O)N5CCOCC5)cc4)cc23)ccc1OCc1cccc(F)c1 | Plasmodium falciparum | parasite growth, SYBR Green fluorescence | C235 (TM91C235), drug-resistant |  |  | EC50 | 600 nM |
